Assay results of several laboratories.
Each line is one published result; not all experiments were run side by side. Several values in a cell are separate wells, animals, samples, runs or records. ± marks the error that the study gave.
CXCR4: C-X-C chemokine receptor type 4 (CXCR4, Homo sapiens, UniProt P61073)
Sequence of UniProt P61073 (whole entry, looked up): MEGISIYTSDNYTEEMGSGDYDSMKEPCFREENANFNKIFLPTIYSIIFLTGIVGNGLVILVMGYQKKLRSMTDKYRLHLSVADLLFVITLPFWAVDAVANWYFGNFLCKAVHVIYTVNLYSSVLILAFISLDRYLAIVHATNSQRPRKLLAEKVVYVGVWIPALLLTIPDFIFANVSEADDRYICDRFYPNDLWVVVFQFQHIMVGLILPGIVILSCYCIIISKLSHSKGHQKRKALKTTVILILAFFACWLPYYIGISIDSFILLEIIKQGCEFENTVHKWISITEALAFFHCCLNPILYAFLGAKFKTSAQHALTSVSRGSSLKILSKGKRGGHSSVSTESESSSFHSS
PARP1: Poly [ADP-ribose] polymerase 1 (PARP1, Homo sapiens, UniProt P09874)
Sequence of UniProt P09874 (whole entry, looked up): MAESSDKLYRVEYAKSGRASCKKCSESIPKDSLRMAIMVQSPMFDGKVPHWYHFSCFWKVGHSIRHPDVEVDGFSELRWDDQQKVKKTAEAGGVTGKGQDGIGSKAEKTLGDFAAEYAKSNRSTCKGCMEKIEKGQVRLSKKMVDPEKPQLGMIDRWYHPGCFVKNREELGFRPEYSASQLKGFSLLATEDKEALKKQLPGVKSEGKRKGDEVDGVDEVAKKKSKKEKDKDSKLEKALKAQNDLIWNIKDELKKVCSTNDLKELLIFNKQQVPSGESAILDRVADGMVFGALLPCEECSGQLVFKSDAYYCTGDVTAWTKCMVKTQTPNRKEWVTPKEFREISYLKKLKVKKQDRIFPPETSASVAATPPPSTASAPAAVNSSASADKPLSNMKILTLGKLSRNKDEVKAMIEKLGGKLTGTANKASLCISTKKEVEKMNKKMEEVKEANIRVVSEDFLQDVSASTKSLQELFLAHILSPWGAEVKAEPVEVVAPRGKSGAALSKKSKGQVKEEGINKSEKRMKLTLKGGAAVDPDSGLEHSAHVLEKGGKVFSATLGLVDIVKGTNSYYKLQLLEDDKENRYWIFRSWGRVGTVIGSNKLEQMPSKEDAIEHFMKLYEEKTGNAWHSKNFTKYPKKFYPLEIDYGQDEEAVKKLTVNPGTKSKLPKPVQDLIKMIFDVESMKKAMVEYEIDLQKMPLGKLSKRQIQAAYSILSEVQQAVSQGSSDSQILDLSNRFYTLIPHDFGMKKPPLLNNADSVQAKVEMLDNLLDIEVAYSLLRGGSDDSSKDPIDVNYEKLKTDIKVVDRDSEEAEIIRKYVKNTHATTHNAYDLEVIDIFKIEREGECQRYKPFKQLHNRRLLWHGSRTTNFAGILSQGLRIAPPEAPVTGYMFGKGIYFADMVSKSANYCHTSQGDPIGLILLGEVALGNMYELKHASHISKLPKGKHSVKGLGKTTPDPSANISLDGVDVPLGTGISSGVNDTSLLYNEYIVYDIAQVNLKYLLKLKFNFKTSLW
FAAH: Fatty-acid amide hydrolase 1 (FAAH, Homo sapiens, UniProt O00519)
Sequence of UniProt O00519 (whole entry, looked up): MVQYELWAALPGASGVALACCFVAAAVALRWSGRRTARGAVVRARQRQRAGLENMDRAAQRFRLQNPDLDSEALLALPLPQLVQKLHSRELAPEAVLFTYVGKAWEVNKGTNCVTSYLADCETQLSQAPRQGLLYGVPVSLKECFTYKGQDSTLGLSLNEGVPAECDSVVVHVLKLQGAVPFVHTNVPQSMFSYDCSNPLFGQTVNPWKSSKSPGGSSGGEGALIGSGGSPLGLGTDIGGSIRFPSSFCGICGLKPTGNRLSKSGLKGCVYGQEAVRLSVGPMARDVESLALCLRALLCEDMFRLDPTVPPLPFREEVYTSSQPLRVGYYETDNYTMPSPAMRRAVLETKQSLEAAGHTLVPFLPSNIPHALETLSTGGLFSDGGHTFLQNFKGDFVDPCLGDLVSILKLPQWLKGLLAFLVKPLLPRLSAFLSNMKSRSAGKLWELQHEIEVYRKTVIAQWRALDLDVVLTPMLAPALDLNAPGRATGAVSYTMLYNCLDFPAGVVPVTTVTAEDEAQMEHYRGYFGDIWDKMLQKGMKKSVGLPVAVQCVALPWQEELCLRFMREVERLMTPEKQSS
HDAC3: Histone deacetylase 3 (HDAC3, Homo sapiens, UniProt O15379)
Sequence of UniProt P05177 (whole entry, looked up): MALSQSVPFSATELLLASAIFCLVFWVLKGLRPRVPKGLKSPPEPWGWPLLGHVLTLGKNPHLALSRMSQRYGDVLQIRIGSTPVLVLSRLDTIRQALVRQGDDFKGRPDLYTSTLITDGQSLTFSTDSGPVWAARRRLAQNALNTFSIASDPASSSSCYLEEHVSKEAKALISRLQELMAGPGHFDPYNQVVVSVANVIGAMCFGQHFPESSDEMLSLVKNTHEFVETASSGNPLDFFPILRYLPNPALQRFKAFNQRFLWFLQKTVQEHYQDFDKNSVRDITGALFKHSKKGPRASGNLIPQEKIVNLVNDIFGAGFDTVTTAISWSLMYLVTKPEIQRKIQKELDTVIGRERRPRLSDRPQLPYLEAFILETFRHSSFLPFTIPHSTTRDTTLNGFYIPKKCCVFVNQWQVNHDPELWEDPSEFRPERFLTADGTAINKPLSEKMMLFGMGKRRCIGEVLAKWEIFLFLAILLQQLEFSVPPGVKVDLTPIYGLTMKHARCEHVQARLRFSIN
Sequence of UniProt O15379 (whole entry, looked up): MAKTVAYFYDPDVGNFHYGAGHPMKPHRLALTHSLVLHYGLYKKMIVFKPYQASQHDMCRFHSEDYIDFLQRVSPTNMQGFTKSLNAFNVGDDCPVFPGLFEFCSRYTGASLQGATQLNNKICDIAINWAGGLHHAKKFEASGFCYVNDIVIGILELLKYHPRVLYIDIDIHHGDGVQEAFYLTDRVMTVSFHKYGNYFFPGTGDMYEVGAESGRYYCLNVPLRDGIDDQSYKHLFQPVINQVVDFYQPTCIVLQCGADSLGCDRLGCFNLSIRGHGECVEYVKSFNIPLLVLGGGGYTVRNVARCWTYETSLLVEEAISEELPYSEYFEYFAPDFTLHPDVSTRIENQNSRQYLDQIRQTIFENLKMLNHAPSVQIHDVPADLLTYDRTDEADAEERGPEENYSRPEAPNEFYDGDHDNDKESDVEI
Sequence of UniProt P27487 (whole entry, looked up): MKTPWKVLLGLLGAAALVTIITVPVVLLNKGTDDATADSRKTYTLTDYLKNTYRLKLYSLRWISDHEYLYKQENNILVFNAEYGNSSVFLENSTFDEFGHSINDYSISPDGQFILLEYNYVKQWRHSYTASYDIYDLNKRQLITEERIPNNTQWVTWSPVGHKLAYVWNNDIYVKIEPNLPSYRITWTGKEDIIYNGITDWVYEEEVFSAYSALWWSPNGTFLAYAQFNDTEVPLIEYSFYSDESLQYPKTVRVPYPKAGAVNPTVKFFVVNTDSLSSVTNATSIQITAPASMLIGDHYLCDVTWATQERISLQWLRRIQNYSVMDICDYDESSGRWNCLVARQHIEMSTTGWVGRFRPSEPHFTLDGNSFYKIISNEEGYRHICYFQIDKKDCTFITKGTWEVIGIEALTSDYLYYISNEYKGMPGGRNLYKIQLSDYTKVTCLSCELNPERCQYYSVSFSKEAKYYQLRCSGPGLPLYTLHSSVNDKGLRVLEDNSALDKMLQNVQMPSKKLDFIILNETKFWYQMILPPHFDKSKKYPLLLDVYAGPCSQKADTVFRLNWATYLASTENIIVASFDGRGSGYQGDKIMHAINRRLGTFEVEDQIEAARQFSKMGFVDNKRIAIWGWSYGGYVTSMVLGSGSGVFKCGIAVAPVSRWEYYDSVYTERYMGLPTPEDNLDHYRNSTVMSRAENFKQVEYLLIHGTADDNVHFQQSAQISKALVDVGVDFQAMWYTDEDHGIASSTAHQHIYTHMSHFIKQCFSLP
Sequence of UniProt Q86YT5 (whole entry, looked up): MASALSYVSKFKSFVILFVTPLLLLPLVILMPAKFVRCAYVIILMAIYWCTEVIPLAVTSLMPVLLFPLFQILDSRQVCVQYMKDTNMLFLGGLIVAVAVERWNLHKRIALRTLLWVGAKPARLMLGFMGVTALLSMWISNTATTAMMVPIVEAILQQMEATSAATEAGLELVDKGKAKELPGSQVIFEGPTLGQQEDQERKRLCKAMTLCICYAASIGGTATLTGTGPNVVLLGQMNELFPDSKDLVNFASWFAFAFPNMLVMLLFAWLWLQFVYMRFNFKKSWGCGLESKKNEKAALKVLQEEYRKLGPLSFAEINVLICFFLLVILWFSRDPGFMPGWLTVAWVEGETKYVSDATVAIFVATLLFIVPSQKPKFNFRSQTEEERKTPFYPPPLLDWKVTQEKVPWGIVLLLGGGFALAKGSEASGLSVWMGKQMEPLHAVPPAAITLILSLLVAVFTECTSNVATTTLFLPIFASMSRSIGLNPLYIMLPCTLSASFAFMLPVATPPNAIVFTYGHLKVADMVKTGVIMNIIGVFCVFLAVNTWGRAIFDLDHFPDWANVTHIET
Sequence of UniProt P23919 (whole entry, looked up): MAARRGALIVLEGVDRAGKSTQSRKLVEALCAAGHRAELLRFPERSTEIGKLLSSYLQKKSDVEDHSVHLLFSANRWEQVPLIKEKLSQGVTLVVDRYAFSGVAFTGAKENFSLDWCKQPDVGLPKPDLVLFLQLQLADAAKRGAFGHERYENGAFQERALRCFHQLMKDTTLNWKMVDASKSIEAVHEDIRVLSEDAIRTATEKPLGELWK
Sequence of UniProt Q6IQ20 (whole entry, looked up): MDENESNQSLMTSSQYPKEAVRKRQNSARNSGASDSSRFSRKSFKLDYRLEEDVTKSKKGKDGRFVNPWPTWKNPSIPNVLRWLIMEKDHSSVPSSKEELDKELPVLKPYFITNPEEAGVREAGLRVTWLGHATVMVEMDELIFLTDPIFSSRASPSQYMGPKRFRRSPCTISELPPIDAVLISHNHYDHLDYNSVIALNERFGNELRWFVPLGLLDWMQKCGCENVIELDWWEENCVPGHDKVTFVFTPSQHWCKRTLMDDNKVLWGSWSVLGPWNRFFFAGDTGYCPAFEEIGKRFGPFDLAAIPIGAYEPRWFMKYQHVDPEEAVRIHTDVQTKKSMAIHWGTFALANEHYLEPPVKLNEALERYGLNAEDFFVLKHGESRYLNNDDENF

`Cn1c(=O)c(=O)n(C)c2cc(S(=O)(=O)NNC(=S)NC3CCCCC3)ccc21` gave an IC50 of 5.5e-05 µM (DPP4 (Homo sapiens, UniProt P27487); enzyme activity, inhibitor, fluorescence).
`[Na+].[Na+].[Na+].[O]=[V]([O-])([O-])[O-]` has an IC50 of 11.8 µM (PTPN11 (Homo sapiens, UniProt Q06124); enzyme activity, inhibitor, fluorescence).
For `c1cc(CNCCCNC2CCCCC2)cc(CNc2nc(N3CCNCC3)nc3[nH]cnc23)c1`, the IC50 was 0.0042 µM (CXCR4; ligand displacement, radioligand; cell membranes).
The IC50 of `Cc1c(OCC(F)(F)F)ccnc1C[S+]([O-])c1nc2ccccc2[nH]1` (centres unmarked) is reported as over 10 µM (MAPT (Homo sapiens, UniProt P10636); ligand displacement, radioligand).
With `O=c1[nH]c2ccccc2n1C1CCN(CCCC(c2ccc(F)cc2)c2ccc(F)cc2)CC1` the IC50 was 1.4 ± 0.7 µM (ABCC1 (Homo sapiens, UniProt P33527); efflux, inhibitor, flow cytometry; SupT1 cells overexpressing ABCC1; added: 100 nM DiOC6).
For `O=c1ccn([C@H]2C[C@H](O)[C@@H](COP(=O)(O)O)O2)c(=O)[nH]1`, the IC50 was 260 µM (Thymidylate kinase (DTYMK, Homo sapiens, UniProt P23919); ligand displacement).
With `N#Cc1c(-c2ccc([N+](=O)[O-])cc2)cc(-c2ccc(NC(=O)CSc3nc4ccccc4c(=O)n3-c3ccccc3)cc2)nc1N` the IC50 was 0.402 µM (PARP1; enzyme activity, inhibitor, absorbance).
With `CCCCC(CC)CNC(=N)NC(=N)NCCCCCCNC(=N)NC(=N)NCC(CC)CCCC` (centres unmarked) the IC50 was 1.23 µM (Calmodulin-1, with adenylyl cyclase 8 (CALM1, Homo sapiens, UniProt P0DP23); AC8-calmodulin interaction, NanoBiT complementation; HEK-293T; 30 min pretreatment, added: rat AC8).
For `O=C(O)c1ccc(OCCCc2ccc(OCCCCOC3CCCCC3)cc2)c(C(=O)NC2CCCC(C(=O)O)C2)c1` (centres unmarked), the IC50 was 21 µM (Uracil nucleotide/cysteinyl leukotriene receptor, long isoform (GPR17, Homo sapiens, UniProt Q13304); calcium mobilization, antagonist; 1321N1 stably expressing GPR17; resynthesised compound).
For `CCCN1CCC(c2cccc(S(C)(=O)=O)c2)CC1`, the IC50 was 35 µM (Cytochrome P450 2D6 (CYP2D6, Homo sapiens, UniProt P10635); enzyme activity, inhibitor; human, liver microsomes; pH 7.4).
`O=C(NC1CCCCC1)OCc1cn(Cc2cc(F)cc(F)c2)nn1` gave an IC50 of 0.216 µM (FAAH; enzyme activity, inhibitor, fluorescence; cell membranes).
`Cn1ccnc1C(=O)C1CC1c1ccc(CC(=O)Nc2ccc(Br)cc2)cc1` (centres unmarked) has an IC50 of over 200 µM (HDAC3; enzyme activity, inhibitor).
`NC(=O)c1cccc2c1OCO2` has an IC50 of > 2.5 µM and ≥ 2.5 µM (PARP1).
For `O=C(NCC1CC1)c1cc(N2CC[C@H](O)C2)nc(N2CCC[C@@H](c3ccccc3)C2)n1`, the IC50 was 0.86 µM (N-acyl-phosphatidylethanolamine-hydrolyzing phospholipase D (Homo sapiens, UniProt Q6IQ20); photoprobe labeling; HEK-293T, NAPE-PLD transfected; 30 min, added: photoprobe 2 µM).
With `COc1cccc2cc(-c3nnc(SCC(=O)Nc4ccc(Cl)c(Cl)c4)n3-c3ccccc3)oc12` the IC50 was 1.73 ± 3.8 µM (fungal tyrosinase; enzyme activity, inhibitor, dopachrome absorbance; pH 6.8, 37 °C, added: L-tyrosine substrate).
For `O=C(CC1Cc2ccccc2C1)N[C@H](CN1CCCC1)[C@H](O)c1ccc2c(c1)OCCO2`, the IC50 was 0.0153 µM (UGCG (Canis lupus familiaris, UniProt A0A8I3MXG6); item: glucosylceramide; MDCK; 24 h).
`N[C@@H](Cn1cc(F)c(=O)[nH]c1=O)C(=O)O` has an IC50 of 0.0062 ± 0.0014 µM (Glutamate receptor 3, S1S2 ligand-binding domain (Rattus norvegicus, UniProt P19492, del531-655/S657T/V656G)).
With `C[C@H](CO)N1C[C@H](C)[C@H](CN(C)Cc2ccc(C(=O)Nc3ccccc3N)cc2)Oc2ccc(N(C)C)cc2CC1=O` the IC50 was 1.3 µM (HDAC3; enzyme activity, inhibitor; with preincubation).
For `NC(C(=O)O)[C@@H]1CCN[C@H]1C(=O)O` (relative stereo), the IC50 was 31 µM (AMPA receptor, rat; binding; cortical synaptosomes; added: [3H]-AMPA).
For `O=P(O)(O)OC(CO)CO`, the IC50 was 8200 µM (Protein phosphatase EYA2 (Homo sapiens, UniProt O00167)).
`CC(=O)Nc1ccc(NC(=S)NC(=O)c2ccc(C(C)(C)C)cc2)cc1` has an IC50 of over 300 µM (SIRT1 (Homo sapiens, UniProt Q96EB6)).
`O=C(OCC1CCCCC1)c1ccc(O)cc1` has an IC50 of 0.36 µM (FAAH; enzyme activity, inhibitor, fluorescence; with preincubation).
With `NC(=O)c1cccc2c1OC[C@@H](CO)O2` the IC50 was 6.9 ± 0.95 µM (PARP1).
`CC(C)CN(CC(C)C)c1nc(NCCO)nc2c(N(CC(C)C)CC(C)C)nc(NCCO)nc12` gave an IC50 of 5.95 µM (SLC29A1 (Homo sapiens, UniProt Q99808); [3H]uridine uptake; PK-15 expressing SLC29A1; 2 min, pH 7.4, added: [3H]uridine 0.2 µM).
`Cc1ccc(S(=O)(=O)/C=C/C#N)cc1` gave an IC50 of over 30 µM (PSMB5 (Homo sapiens, UniProt P28074); enzyme activity; added: Suc-LLVY-AMC substrate, ATP).
`C#Cc1ccc2c(C)c(C)c(=O)oc2c1C` has an IC50 of 0.46 µM and 0.5 µM (Cytochrome P450 1A2 (CYP1A2, Homo sapiens, UniProt P05177); enzyme activity, inhibitor; 6 min, pH 7.6).
`COc1c(F)cc(OCC2=C(C)C(=O)c3ccccc3C2=O)cc1F` has an IC50 of 2 µM (TXNRD1 (Homo sapiens, UniProt Q16881); enzyme activity, inhibitor; pH 7.4, with preincubation).
`CN1CCC2(CC1)c1ccccc1N(Cc1ccc(C(=O)NO)s1)C2c1ccc(Cl)cc1` (centres unmarked) has an IC50 of 0.4 ± 0.11 µM (Histone deacetylase 8 (Schistosoma mansoni, UniProt A5H660); enzyme activity, inhibitor, Fluor-de-Lys; added: Fluor-de-Lys substrate 50 µM).
The IC50 of `O=C(NCc1ccc(F)cc1)C1CCN(S(=O)(=O)c2cc(Cl)cc(Cl)c2)CC1` is reported as 0.049 ± 0.003 µM (Na(+)/citrate cotransporter (Homo sapiens, UniProt Q86YT5); citrate uptake, inhibitor; HepG2; 30 min preincubation, inhibitor also during uptake, added: Li+).
`CCc1ccc(Cl)cc1-n1c(C=C(C)C)c(C(=O)N2CCNCC2)cc(-c2nc(-c3ccc(Cl)cc3)cs2)c1=O` (single isomer, unassigned) gave an IC50 of 0.54 µM (IDH1 (Homo sapiens, UniProt O75874, R132C); enzyme activity, inhibitor).
`O=S(=O)(c1cc(C(=S)Nc2cc(F)c(F)c(F)c2)c(Cl)cc1Cl)N1CCOCC1` gave an IC50 of over 100 µM (LPAR3 (Homo sapiens, UniProt Q9UBY5); Ca2+ mobilization, antagonist; RH7777; added: LPA at EC50).
`CCOc1ccc2cc(-c3nn(CC4CCN(C)CC4)c4ncnc(N)c34)ccc2c1` gave an IC50 of 0.006 µM (CDPK1 (Sarcocystis neurona); kinase activity, inhibitor, Kinase-Glo; 90 min, 30 °C, added: 10 µM ATP).
For `COCC(=O)O[C@]1(CCN(C)CCCc2nc3ccccc3[nH]2)CCc2cc(F)ccc2[C@@H]1C(C)C`, the IC50 was 6.76 µM (CatSper channel complex (Homo sapiens, UniProt Q7RTX7+Q86XQ3+Q8NEC5+Q96P56); calcium influx, inhibitor; human sperm; added: progesterone 30 nM).
For `O=C1C=C2CC3(O)COc4c(ccc(O)c4O)C3=C2C=C1O` (centres unmarked), the IC50 was 3.13 ± 0.36 µM (Cell division cycle 7-related protein kinase, with DBF4 (CDC7, Homo sapiens, UniProt O00311); enzyme activity, inhibitor, ADP-Glo luminescence; added: ATP 12.5 µM).
`CO[C@@]1(NC(=O)Cc2cccs2)C(=O)N2C(C(=O)O)=C(COC(N)=O)CS[C@@H]21` has an IC50 of 573 ± 63.2 µM (mecA (Staphylococcus aureus, UniProt A0A0H2WXF8)).
The IC50 of `COc1ccc(-c2cc(-c3ccc(NC(=O)CSc4nc5ccccc5c(=O)n4-c4ccccc4)cc3)nc(N)c2C#N)cc1` is reported as 0.0333 µM (PARP1; enzyme activity).
The IC50 of `CNC(=O)[C@@]12C[C@@H]1[C@@H](n1cnc3c(NC)nc(C#C[c-]4cccc4)nc31)[C@H](O)[C@@H]2O.[Fe+2].c1cc[cH-]c1` is reported as 0.00314 µM (Adenosine receptor A3 (Mus musculus, UniProt Q61618); cAMP).
With `c1nc2c(NCCc3ccc(CNCCCNC4CCCCC4)cc3)nc(N3CCNCC3)nc2[nH]1` the IC50 was 0.0451 µM (CXCR4; ligand displacement, radioligand; cell membranes).

Repeated from above:
`CCOc1ccc2cc(-c3nn(CC4CCN(C)CC4)c4ncnc(N)c34)ccc2c1` gave an IC50 of 0.006 µM (CDPK1 (Sarcocystis neurona); kinase activity, inhibitor, Kinase-Glo; 90 min, 30 °C, added: 10 µM ATP).
For `COCC(=O)O[C@]1(CCN(C)CCCc2nc3ccccc3[nH]2)CCc2cc(F)ccc2[C@@H]1C(C)C`, the IC50 was 6.76 µM (CatSper channel complex (Homo sapiens, UniProt Q7RTX7+Q86XQ3+Q8NEC5+Q96P56); calcium influx, inhibitor; human sperm; added: progesterone 30 nM).
For `O=C1C=C2CC3(O)COc4c(ccc(O)c4O)C3=C2C=C1O` (centres unmarked), the IC50 was 3.13 ± 0.36 µM (Cell division cycle 7-related protein kinase, with DBF4 (CDC7, Homo sapiens, UniProt O00311); enzyme activity, inhibitor, ADP-Glo luminescence; added: ATP 12.5 µM).
